Results pooled from the literature.
Every numbered part comes from another study and shows a few of its results, in no order.
Chain of UniProt P11362 (whole entry, looked up): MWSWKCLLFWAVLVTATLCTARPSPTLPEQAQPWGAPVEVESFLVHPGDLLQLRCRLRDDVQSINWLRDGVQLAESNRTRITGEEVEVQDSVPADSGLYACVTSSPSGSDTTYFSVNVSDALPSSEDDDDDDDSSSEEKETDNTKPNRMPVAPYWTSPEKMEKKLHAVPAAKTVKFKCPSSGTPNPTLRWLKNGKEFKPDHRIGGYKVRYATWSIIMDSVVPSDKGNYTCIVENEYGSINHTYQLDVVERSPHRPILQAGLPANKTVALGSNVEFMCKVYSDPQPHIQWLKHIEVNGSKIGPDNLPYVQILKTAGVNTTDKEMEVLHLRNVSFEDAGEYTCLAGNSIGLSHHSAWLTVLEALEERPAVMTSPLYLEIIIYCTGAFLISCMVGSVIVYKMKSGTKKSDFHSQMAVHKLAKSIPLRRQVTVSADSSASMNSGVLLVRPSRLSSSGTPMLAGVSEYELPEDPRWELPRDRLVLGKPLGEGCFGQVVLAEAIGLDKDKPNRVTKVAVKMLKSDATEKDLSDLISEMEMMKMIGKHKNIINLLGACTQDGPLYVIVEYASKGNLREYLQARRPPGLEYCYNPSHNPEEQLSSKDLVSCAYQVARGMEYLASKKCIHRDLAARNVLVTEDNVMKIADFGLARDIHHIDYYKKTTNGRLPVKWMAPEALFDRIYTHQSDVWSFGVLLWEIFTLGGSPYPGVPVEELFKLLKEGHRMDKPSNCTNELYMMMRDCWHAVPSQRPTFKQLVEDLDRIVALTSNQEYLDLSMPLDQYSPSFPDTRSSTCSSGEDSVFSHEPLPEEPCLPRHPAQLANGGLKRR
Chain of UniProt P49137 (whole entry, looked up): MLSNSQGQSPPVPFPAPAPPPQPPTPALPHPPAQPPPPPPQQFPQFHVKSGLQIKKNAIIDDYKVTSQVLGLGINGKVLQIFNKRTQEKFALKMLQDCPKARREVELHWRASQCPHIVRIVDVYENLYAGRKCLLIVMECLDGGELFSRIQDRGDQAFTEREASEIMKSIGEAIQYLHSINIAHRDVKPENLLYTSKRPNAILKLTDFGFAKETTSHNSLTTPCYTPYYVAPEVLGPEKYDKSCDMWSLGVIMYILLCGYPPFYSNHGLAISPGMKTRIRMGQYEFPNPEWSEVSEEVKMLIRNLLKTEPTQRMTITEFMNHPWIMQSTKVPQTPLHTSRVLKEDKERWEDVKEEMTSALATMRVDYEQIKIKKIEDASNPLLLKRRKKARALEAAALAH
Chain of UniProt P42685 (whole entry, looked up): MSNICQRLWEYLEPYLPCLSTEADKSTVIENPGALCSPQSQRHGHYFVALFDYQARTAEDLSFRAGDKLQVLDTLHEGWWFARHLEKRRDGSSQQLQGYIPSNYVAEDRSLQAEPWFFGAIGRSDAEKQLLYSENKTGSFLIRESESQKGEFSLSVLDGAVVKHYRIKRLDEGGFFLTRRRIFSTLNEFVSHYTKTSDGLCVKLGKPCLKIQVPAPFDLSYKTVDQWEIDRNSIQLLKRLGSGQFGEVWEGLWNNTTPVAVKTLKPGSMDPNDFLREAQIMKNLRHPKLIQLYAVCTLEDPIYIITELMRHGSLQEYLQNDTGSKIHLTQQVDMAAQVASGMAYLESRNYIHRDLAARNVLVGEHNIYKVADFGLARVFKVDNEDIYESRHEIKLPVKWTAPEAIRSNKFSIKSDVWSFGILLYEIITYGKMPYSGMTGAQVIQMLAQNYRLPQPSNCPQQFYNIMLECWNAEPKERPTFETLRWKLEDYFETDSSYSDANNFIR
Chain of UniProt Q02763 (whole entry, looked up): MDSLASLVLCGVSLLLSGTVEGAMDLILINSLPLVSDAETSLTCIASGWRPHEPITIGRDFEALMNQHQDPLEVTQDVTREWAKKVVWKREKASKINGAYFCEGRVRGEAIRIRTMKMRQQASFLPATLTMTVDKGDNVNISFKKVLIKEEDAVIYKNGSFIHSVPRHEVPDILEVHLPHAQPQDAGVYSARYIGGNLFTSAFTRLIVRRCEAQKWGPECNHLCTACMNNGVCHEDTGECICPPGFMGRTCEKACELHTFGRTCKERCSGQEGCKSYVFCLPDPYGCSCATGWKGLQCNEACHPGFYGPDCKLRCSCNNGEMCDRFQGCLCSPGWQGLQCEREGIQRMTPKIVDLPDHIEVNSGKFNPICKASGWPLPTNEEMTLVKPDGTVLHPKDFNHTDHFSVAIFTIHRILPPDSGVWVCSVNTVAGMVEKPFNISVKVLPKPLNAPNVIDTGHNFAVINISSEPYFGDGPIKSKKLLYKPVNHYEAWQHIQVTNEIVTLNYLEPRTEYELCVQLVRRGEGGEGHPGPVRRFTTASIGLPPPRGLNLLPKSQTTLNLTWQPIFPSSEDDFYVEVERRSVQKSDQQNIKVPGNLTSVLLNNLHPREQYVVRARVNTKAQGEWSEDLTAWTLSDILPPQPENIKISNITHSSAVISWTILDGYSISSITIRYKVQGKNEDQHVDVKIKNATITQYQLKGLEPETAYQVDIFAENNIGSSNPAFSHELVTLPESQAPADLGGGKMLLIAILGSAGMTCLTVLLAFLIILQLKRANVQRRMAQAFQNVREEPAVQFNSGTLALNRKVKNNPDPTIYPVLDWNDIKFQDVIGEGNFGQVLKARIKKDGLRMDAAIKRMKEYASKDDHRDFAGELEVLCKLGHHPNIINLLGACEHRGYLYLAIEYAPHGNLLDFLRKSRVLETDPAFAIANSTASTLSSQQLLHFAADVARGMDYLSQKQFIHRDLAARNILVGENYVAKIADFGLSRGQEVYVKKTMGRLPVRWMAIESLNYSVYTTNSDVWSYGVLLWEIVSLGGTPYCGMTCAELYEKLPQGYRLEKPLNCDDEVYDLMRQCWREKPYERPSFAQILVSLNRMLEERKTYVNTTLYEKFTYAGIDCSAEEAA
Chain of UniProt Q9Y6M4 (whole entry, looked up): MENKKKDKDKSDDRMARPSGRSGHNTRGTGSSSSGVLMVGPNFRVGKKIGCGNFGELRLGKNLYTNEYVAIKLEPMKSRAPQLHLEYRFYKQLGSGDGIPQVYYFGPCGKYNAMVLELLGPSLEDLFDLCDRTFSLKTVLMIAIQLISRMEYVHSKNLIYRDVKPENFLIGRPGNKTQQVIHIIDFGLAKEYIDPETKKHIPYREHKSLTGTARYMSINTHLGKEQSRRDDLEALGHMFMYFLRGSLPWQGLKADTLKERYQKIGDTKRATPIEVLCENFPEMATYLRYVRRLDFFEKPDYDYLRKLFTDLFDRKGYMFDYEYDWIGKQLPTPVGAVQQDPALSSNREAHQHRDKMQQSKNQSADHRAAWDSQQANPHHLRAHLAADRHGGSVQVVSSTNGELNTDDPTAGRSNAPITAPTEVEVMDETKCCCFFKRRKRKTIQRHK
Chain of UniProt Q6PHR2 (whole entry, looked up): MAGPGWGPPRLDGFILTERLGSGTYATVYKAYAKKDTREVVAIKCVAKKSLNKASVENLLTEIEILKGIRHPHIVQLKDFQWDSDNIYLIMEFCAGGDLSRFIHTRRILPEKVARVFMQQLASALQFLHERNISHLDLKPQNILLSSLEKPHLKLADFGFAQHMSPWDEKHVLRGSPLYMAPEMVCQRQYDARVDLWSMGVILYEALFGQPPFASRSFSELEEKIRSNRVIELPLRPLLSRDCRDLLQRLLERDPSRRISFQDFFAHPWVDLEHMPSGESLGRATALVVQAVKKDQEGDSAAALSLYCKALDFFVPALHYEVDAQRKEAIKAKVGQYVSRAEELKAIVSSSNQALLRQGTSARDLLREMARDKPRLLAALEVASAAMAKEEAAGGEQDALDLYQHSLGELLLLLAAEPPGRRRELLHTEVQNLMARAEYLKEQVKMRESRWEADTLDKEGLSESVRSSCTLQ
Chain of UniProt P27361 (whole entry, looked up): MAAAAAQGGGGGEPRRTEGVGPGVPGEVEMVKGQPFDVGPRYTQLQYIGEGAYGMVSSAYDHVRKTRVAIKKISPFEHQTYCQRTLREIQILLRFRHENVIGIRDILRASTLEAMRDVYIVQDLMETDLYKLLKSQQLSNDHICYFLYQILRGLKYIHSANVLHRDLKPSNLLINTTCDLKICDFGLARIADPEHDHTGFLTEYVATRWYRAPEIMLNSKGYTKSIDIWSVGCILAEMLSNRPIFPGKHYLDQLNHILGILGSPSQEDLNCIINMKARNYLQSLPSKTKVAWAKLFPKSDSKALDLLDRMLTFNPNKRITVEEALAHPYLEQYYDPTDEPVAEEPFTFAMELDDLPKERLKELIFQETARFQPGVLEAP

Study 1
SMILES: N#C/C(=C\c1ccc(O)c(O)c1)C(=O)NCc1ccccc1
Effect on: enzyme activity
Action: inhibitor
Concentration: 0.5 µM
Baseline: control
Measurement: remaining activity
MAP2K2 (Homo sapiens, UniProt P36507): 105%
NEK1 (Homo sapiens, UniProt Q96PY6): 97.3%
MAPK3 (Homo sapiens, UniProt P27361): 106%
FRK (Homo sapiens, UniProt P42685): 97.4%
FGFR1 (Homo sapiens, UniProt P11362): 92.8%
TBK1 (Homo sapiens, UniProt Q9UHD2): 98.3%
TEK (Homo sapiens, UniProt Q02763): 95.1%
MST1R (Homo sapiens, UniProt Q04912): 102%
CSNK1G3 (Homo sapiens, UniProt Q9Y6M4): 104%
ULK3 (Homo sapiens, UniProt Q6PHR2): 71.2%
MAPKAPK2 (Homo sapiens, UniProt P49137): 101%
MAP3K5 (Homo sapiens, UniProt Q99683): 104%

Study 2
Target: Interferon regulatory factor 7, full length, phosphomimetic (IRF7, Homo sapiens, UniProt Q92985, residues 1-503, S471D/S472D/S475D/S476D/S477D/S483D/S484D/S487D)
Technique: protein-binding microarray
Molecule type: double-stranded DNA, one strand shown
Sample: in vitro
Concentration: 2200 nM top
Setting: 60-bp whole probe
Together with: salmon DNA 0.4 mg/ml
Baseline: random background probes
Direction: higher = stronger binding
Measurement: fitted relative affinity
Constant ends, left off below: GCCTAGCAC … GTCTTGATTCGCTTGACGCTGCTG
Residues (chain): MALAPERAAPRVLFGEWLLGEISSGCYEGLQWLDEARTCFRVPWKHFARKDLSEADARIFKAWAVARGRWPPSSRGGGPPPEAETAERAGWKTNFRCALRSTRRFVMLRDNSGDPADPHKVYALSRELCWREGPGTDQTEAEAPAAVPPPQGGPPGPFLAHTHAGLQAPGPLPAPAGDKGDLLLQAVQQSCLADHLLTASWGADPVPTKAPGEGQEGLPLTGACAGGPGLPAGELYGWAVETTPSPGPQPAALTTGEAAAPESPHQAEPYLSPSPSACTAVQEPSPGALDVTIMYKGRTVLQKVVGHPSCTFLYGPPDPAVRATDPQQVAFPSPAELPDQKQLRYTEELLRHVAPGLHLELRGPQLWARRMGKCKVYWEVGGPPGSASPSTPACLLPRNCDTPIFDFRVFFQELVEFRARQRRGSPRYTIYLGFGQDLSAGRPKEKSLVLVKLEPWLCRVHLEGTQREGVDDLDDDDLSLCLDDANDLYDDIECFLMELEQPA
GGTCATGTCTGTGTCACAGAGTGCTAG: 0.316 z-score
TTAGGTTTCGGTATCGGCTAGTGCTAG: 7.52 z-score
TTAGGTTTCCTTTTCCTATAGTGCTAG: 5.41 z-score
TTAGGTATCGACAGTGGGTTAGTGCTA: -0.205 z-score
TTAGGACTGCTTTTCCTTGAGTGCTAG: 0.622 z-score
GTAGGACTGGGACTGGGTTAGTGCTAG: -0.891 z-score
GACGGCATCGGGTTTCGGGACGTGCTA: 0.725 z-score
GACGGATCCCTTTTCCTGACGTGCTAG: 1.48 z-score

Study 3
Target: Centromere-binding protein 1, full length, N-terminal tag (CBF1, Saccharomyces cerevisiae, UniProt P17106, residues 1-351)
Chain of UniProt P17106 (whole entry, looked up): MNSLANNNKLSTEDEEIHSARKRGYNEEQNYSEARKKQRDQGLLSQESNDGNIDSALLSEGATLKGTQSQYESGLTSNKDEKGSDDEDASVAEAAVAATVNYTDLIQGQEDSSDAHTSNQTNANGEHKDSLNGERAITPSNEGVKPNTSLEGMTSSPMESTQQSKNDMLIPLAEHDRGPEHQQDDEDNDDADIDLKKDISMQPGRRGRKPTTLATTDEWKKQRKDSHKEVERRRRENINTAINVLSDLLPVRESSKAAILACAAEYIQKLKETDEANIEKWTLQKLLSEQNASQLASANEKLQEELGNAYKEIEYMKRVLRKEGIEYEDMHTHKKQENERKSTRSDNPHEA
Technique: protein-binding microarray
Molecule type: double-stranded DNA, one strand shown
Sample: in vitro
Concentration: 0.8 µM
Setting: whole 60-bp probe, no competitor
Direction: higher = stronger binding
Measurement: fluorescence intensity
CTAATATGATTAAGTCACGATAATATCTGCACTTTCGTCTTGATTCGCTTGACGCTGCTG: 594 a.u.
CCTAACTACTATAGTCATGATCAATAGCTTCGTACAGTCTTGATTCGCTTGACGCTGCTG: 526 a.u.
GAATAAGAAAAACATCTGATGTTGACTTAAATATAGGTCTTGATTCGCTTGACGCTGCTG: 509 a.u.
TGTACGAAGCTATTTCATGTCACTATAGTAGTTAGGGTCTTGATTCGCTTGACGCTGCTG: 542 a.u.
GAATAAAAGCTTTTGAAGGTGGTGTCATTATTATAGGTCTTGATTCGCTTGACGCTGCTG: 520 a.u.
GAACTAGCTCGAATACTGGTGGTGCAATTGAACTAGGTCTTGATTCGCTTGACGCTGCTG: 537 a.u.
CTATATAATATTCACATGGTGCTCTACCGTTTTTTCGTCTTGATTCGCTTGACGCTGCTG: 726 a.u.
GAAACTCAGGGGATTCATCTGATGATGGAAAAATAGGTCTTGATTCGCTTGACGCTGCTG: 564 a.u.

Study 4
Structure (SMILES): COc1cc(-c2cn(C3CCc4ccccc4N(CC(F)(F)F)C3=O)nn2)ccc1-n1ccc(C)n1 (centres unmarked)
Effect on: cell-free assay
Technique: competition with immobilised ligand
Concentration: 1 µM
Measurement: remaining binding
MAP2K2 (Homo sapiens, UniProt P36507): 98%
Tyrosine-protein kinase ABL1, phosphorylated (ABL1, Homo sapiens, UniProt P00519, Q252H): 71%
Tyrosine-protein kinase ABL1, non-phosphorylated (ABL1, Homo sapiens, UniProt P00519): 78%
RIPK1 (Homo sapiens, UniProt Q13546): 100%
